Measured values gathered from unrelated publications.
Each numbered part is a random draw from the data of one study; scales do not carry over between parts.

Sample 1
Target: Sal-like protein 4, full length isoform A (SALL4, Homo sapiens, UniProt Q9UJQ4, residues 1-1053)
UniProt Q9UJQ4, sequence (whole entry, looked up): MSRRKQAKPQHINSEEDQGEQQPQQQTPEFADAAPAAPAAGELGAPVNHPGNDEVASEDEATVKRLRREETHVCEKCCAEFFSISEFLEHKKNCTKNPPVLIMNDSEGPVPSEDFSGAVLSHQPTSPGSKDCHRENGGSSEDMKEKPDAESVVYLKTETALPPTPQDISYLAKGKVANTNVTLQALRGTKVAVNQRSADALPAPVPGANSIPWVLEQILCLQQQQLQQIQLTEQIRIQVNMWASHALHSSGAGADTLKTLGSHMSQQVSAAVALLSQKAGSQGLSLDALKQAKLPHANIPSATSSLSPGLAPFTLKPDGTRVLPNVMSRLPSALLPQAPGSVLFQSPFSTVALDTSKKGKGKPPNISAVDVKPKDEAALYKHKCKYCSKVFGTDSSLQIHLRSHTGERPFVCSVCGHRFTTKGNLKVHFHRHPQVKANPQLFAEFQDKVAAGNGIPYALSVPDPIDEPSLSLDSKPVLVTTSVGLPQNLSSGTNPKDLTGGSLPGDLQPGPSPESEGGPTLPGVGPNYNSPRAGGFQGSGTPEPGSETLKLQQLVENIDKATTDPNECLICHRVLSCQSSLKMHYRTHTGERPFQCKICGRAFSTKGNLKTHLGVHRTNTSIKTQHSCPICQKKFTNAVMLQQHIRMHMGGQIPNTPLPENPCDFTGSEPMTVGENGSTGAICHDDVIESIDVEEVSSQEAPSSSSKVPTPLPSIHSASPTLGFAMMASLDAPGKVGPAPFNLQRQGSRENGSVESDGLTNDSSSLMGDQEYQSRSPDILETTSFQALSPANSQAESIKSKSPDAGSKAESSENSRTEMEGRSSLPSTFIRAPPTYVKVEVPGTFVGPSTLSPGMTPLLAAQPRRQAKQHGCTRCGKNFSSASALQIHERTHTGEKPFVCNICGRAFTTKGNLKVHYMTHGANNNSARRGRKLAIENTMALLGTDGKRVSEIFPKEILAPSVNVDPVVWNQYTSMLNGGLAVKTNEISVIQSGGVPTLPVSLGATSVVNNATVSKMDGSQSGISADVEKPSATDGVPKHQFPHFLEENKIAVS
Method: universal PBM
Molecule type: double-stranded DNA, one strand shown
Matrix: in vitro
Tested at: 600 nM
Setting: 8-mer, flanks averaged, mean of replicates
Direction: higher = stronger binding
Endpoint: E-score
Oligonucleotide = CGATTACG; value = -0.0642
Oligonucleotide = CCAGCTCG; value = -0.335
Oligonucleotide = AGGATCAA; value = 0.0444

Sample 2
Target: Prothrombin, mature alpha-thrombin (F2, Homo sapiens, UniProt P00734)
Method: aptamer microarray, sandwich
Molecule type: DNA with 2'F-ANA
Matrix: in vitro
Tested at: 200 nM
Setting: whole 15-mer aptamer, many near background
Together with: Cy3 exosite-II aptamer, 400 nM
Direction: higher = stronger binding
Endpoint: mean fluorescence intensity
Oligonucleotide = GGTTGGTGTGGTTGG (2'F-ANA at 4 5 6 7 9 10 14); value = 47.7 a.u.
Oligonucleotide = GGTTGGTGTGGTTGG (2'F-ANA at 5 8 9 11 14 15); value = 42.9 a.u.
Oligonucleotide = GGTTGGTGTGGTTGG (2'F-ANA at 1 3 4 5 6 11 12 14); value = 45.7 a.u.

Sample 3
Target: Interferon regulatory factor 5, full length, phosphomimetic (IRF5, Homo sapiens, UniProt Q13568-2, residues 1-514, S451D/S453D/S456D/S462D)
Method: protein-binding microarray
Molecule type: double-stranded DNA, one strand shown
Matrix: in vitro
Tested at: 940 nM top
Setting: 60-bp whole probe
Together with: salmon DNA 0.4 mg/ml
Relative to: random background probes
Direction: higher = stronger binding
Endpoint: fitted relative affinity
Oligonucleotide = GCCTAGCACGACGGTTTCAGTTTCGGGACGTGCTAGGTCTTGATTCGCTTGACGCTGCTG; value = 8.33 z-score
Oligonucleotide = GCCTAGCACGATGGTCTCGGACTGGGGACGTGCTAGGTCTTGATTCGCTTGACGCTGCTG; value = 1.6 z-score
Oligonucleotide = GCCTAGCACGTTTTTTGGTTTCTGGTTTAGTGCTAGGTCTTGATTCGCTTGACGCTGCTG; value = 4.84 z-score

Other studies, line by line
Substance = PhoQ, residues 284 288 289 292 302 303 SVHLDV; target = PhoP, residues 12 14 15 18 19 AQALL (Escherichia coli, UniProt P23836); assay = Sort-seq, item: YFP reporter; test system = E. coli; conditions = PhoQ-PhoP variant library, together with: 10 µM Mg2+; scale = relative to: high Mg2+ state, higher = stronger signaling; endpoint = fold induction; value = 7.71

For quick reference, copied from above (sample 3):
Oligonucleotide = GCCTAGCACGTTTTTTGGTTTCTGGTTTAGTGCTAGGTCTTGATTCGCTTGACGCTGCTG; value = 4.84 z-score
